Results pooled from the literature.
Parts stem from different laboratories: compare values within a part only.

Block 1 — method: RNA Bind-n-Seq; molecule type: RNA; matrix: in vitro; concentration: not given; baseline: input RNA pool; direction: higher = stronger binding
Target: RING finger protein unkempt homolog, zinc fingers 1-6, GST-SBP tag (UNK, Homo sapiens, UniProt Q9C0B0, residues 30-357)
Setting: RNA with constant flanks, human-mouse chimeric sites, ends assumed
Residues (chain): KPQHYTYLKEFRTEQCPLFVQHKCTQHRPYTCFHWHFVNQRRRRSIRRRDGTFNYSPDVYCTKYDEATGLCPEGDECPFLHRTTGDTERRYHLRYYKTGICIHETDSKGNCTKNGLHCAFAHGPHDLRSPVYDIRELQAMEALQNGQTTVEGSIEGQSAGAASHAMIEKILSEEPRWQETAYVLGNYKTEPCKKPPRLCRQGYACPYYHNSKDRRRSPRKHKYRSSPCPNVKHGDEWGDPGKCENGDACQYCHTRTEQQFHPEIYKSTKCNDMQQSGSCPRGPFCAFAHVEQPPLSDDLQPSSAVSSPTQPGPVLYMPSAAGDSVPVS
Strand | bound/input enrichment [ratio]
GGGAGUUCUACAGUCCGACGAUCGCUCUUGGCAAUGUAAUCAGCGCCUUGGGGGACAAGAGCAAGAGAGCCACACAUGUCCCUUACAGAGACUCUAAGCUGACAAGACUCUUGCAGGAUUCCCUUGGGGGUAACAGCCAAACCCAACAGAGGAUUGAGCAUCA | 0.0922
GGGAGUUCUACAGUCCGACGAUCAGGAGGAGGUUAAAGGGUGAGAGUGGGGUGGAAGACUGUGUCAUGGCUCUGGAGACACUGUUCAGUGUCCUGCUUUCUCUUUGCAGACUUAUGGCUCCUUACACGCCCUUUCUGACUGAGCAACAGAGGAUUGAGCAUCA | 0.0848
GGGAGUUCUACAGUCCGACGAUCGUUGCCAGCUUCCGGUUCCGUUGGGCUAGCAAGCUCCCUGAGCUACGUGUCUCUACGCUCUCAAUCCGCCAUCCAACGGCAGUCAUGCAGGUAAUGCAGUUUGUGGAGCCCAGCCGGCAGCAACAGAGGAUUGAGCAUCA | 0.0742
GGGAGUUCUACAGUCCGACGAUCGCUCCUCCCCGCUCUGCAGCCUGGGGACUUUUGGCAAGGACCAGAAUCCAGCUUUCUUUUAAAACUCUCAGUGUAACUGUAUCCCGUGACAUUUCAUUUUUUUUAAAAGAAAAAAACUUUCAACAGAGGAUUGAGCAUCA | 0.3
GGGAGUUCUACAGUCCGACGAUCUGACAAGGGCACUGCAGGGCCAUGCCUUUCCUUGACAUACAGAAAAAGCUGGGCAUCAGCCUGGACCGGCACUUUAUAAUCCAGAGUGCAGAACAGCCCUAUAAGAACGCCGCUCGGUGCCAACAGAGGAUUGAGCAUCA | 0.0715
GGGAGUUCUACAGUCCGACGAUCCAGCCUCAGAGCCCAGACUUCCUGGACAUUACCAACCCUAAAGCGGUAUUAGAAAAUGCAUUGAGAAACUUCGCCUGUCUGACGACUGGAGAUGUGAUUGCUAUCAACUAUAAUGAAAAGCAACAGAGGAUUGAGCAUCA | 0.479
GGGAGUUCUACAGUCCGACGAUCUGGCGCCUGCGCUCCCCACUCGUGUUUUUAAGUGUAUUUUUAUAAGAUACAUGUAUUUGUAAUAGAUUUUUUGAUUAAUAAUGCUGAAAUGCUACUGGAGAUUAUGAAAAAUGUUUCAAUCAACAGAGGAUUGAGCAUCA | 168
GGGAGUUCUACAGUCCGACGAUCAAACAUCUGUCUUUAAGCAUUCCAAGCGAGAAUGCUGGGGUGAUCAUUGUUGCCCAUGUGCCUUCUGACUGAGCUUUAAUGCUGUUCCAUGUUACAUCUUUCCUUCACUCCAGAAUUGUUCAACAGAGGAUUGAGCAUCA | 0.162
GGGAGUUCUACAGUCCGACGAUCGAUCCACAGUGGUCUGAGGAGCAACUCAUUGCUGCAAAAUUUUGCUUUGCUGGACUUGUUAUAGGGCAGACUGAAGUGGACAUCAUGAGUCAUGCCACACAAGCUAUUUUUGAAAUUCUGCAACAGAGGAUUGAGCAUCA | 0.273
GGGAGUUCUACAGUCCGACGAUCGGGGAGAAACCUUACGAGUGUGUGCAGUGUGGGAAAUCCUACAGUCAGAGCUCAAACCUUUUUAGACAUCAGAGACGACACAAUGCAGAAAAACUUUUGAAUGUUGUGAAGGUUUAAGAACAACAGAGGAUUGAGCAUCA | 0.238
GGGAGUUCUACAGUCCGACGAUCUCUGGUCACACUCGUGUGUAUGGUGUUUGCUUUGUGGACACUUCACUGGGCAAGUUUUUCAUCGGCCAGUUUUCGGAUGACCGCCACUGUUCGAGAUUUAGGACGCUAGUGGCUCACUAUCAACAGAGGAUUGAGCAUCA | 0.234

Block 2 — method: RNAcompete; molecule type: RNA; matrix: in vitro; concentration: 20 nM; setting: 7-mer, probes averaged, single round; baseline: mean of 7-mers; direction: higher = stronger binding
Target: PABPC1L2, full length, GST fusion (mouse, UniProt A0ABA7IW68)
Residues (chain): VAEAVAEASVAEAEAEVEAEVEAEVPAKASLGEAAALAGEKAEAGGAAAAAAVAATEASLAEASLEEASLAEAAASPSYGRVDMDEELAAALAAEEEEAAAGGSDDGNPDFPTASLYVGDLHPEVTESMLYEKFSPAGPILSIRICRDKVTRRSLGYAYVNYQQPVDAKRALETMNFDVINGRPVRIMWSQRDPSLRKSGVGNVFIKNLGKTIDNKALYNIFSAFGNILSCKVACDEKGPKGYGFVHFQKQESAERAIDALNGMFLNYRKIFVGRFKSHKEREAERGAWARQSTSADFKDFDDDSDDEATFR
Strand | 7-mer Z-score
CCUGACA | -0.121
GCCAAUU | -0.329
UGGCACC | -0.0953
UGCUGAG | -0.0772
AGAUCGG | -0.104
GAUAGGA | 0.0352
UACCGCA | -0.217
AGCGAAC | -0.0536
GGAAAUC | 0.115
GAAUGGU | -0.17
UGGUUCA | -0.18
GCUGUUG | -0.374
CUAUCUC | -0.248
GGCGCAA | 0.186
CGUCUCA | -0.364
GAGCGUU | -0.335
UUAAAGC | 0.222
AAAUUAA | 1.02

Block 3 — method: RNA Bind-n-Seq; molecule type: RNA; matrix: in vitro; concentration: 200 nM; setting: whole 134-nt RNA, ends assumed; together with: 150 mM LiCl; baseline: input library; direction: higher = stronger binding; each molecule: 7-deaza-guanosine replaces G
Target: Fragile X messenger ribonucleoprotein 1, C-terminal low-complexity region (Fmr1, Mus musculus, UniProt P35922)
Strand | log2 enrichment
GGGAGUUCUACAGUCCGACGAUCUGGCCCUGGUGGCAUGCGGGGAGGAAGAGGUGGCCUCAUGGAUCGUGGUGGUCCCGGUGGAAUGUUCAGAGGUGGCCGUGGUGGAGACAUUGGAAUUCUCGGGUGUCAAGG | 0.202
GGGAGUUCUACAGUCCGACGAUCCAAGUCCUGUGCUACACAUCGUAUGUACCGAAUCGGAAAAAGGUUUGGUUUUUGGAAAGUAUUAUGUUACGCCGUUCGGAUCUGCACUUCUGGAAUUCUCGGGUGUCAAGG | -2.14
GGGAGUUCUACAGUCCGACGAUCUCAAGUCCUGUGCUACACAUCGUAUGUACCGAAUCGGAAAAAAAGGAAAGGUGGAAAGUAUUAUGUUACGCCGUUCGGAUCUGCACUUCCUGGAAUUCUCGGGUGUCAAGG | -1.44
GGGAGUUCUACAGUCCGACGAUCCCUGUGCUACACAUCGUAUGUACCGAAUCGGGAAAAAGGGAAAAAAAGGGAAAAAAAGGGAAAGUAUUAUGUUACGCCGUUCGGAUCUGCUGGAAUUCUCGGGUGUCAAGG | -0.251
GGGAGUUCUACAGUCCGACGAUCGUCCUGUGCUACACAUCGUAUGUACCGAAUCAAAUUUAAACCCCCCCAAAUUUUUAAAAAAGUAUUAUGUUACGCCGUUCGGAUCUGCACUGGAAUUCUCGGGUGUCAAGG | 1.56
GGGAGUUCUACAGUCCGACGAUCUCUGUUUCCUCUGCCAGUGGCAAUGCAACACCUAACACUCCUGGGGAUGAGUCUCCCUGUGGUAUUAUUAUUCCUCAUGAAAACUCACCAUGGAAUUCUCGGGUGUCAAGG | 0.553
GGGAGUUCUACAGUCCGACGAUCGGACAAGAAUCCUUCAAGAAACAGGAAAAAACUCCUAAAACACCAAAAGGACCUAGUUCUGUAGAAGACAUUAAAGCAAAAAUGCAAGCAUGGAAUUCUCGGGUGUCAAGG | 0.878
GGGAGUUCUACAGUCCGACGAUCCUCAAGUCCUGUGCUACACAUCGUAUGUACCGAAUCGGAAAAAGGUUUGGUGGAAAGUAUUAUGUUACGCCGUUCGGAUCUGCACUUCCAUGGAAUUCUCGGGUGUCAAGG | -0.399
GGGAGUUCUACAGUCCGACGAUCCCUGUGCUACACAUCGUAUGUACCGAAUCGGAAAAAAAGGAAAAAAAGGGAAAAAAAGGGGAAAGUAUUAUGUUACGCCGUUCGGAUCUGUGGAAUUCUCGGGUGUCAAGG | -0.389
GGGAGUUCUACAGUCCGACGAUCAAGUCCUGUGCUACACAUCGUAUGUACCGAAUCGGGUGGGAAAAAGGGAAAAAGGGAAAGUAUUAUGUUACGCCGUUCGGAUCUGCACUUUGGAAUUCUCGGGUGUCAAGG | -0.141
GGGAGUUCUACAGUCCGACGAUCUAACUUUAGAGGAGGAUCUGAUGGAUAUGGCAGUGGACGUGGAUUUGGGGAUGGCUAUAAUGGGGAUGGAGGAGGACCUGGAGGUGGCAAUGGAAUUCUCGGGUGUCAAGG | 0.713

Block 4 — method: aptamer microarray, sandwich; molecule type: DNA with 2'F-ANA; matrix: in vitro; concentration: 200 nM; together with: Cy3 exosite-II aptamer, 400 nM; direction: higher = stronger binding; strand: GGTTGGTGTGGTTGG
Target: Prothrombin, mature alpha-thrombin (F2, Homo sapiens, UniProt P00734)
Setting: whole 15-mer aptamer, many near background
Modification | mean fluorescence intensity [a.u.]
2'F-ANA at 1 7 8 9 11 12 13 | 252
2'F-ANA at 1 2 4 5 7 8 9 10 11 13 14 | 46.6
2'F-ANA at 2 4 6 8 11 14 | 91.2
2'F-ANA at 3 9 10 11 15 | 460
2'F-ANA at 2 4 5 7 8 10 11 13 | 46
2'F-ANA at 1 2 3 4 5 8 10 13 14 15 | 137
2'F-ANA at 2 3 5 7 9 11 13 14 15 | 57.2
2'F-ANA at 2 6 7 11 13 14 15 | 104
2'F-ANA at 2 3 4 5 6 8 11 14 15 | 51.8
2'F-ANA at 1 3 5 6 7 9 11 12 13 14 | 51.3
2'F-ANA at 1 3 5 6 9 | 87.5
2'F-ANA at 4 6 7 8 10 12 13 14 15 | 58.1
2'F-ANA at 4 5 7 9 10 11 13 | 54.6
2'F-ANA at 1 2 7 8 | 234
2'F-ANA at 7 8 10 13 | 177
2'F-ANA at 8 9 13 | 431
2'F-ANA at 1 2 3 4 5 7 8 9 11 12 15 | 212
2'F-ANA at 1 3 5 6 8 15 | 66.7
2'F-ANA at 5 7 8 14 15 | 48.1
2'F-ANA at 1 2 3 4 5 14 15 | 48.4
2'F-ANA at 1 2 3 4 5 7 8 9 | 72.4
2'F-ANA at 2 5 6 7 8 10 12 13 15 | 47.3
2'F-ANA at 2 4 5 6 8 10 11 14 | 60.8
